Assay results of several laboratories.
Every numbered part comes from another study and shows a few of its results, in no order. Substitutions count along the parent as printed.

Sample 1
Target: Centromere-binding protein 1, full length, His-tagged (CBF1, Saccharomyces cerevisiae, UniProt P17106, residues 1-351)
UniProt P17106, sequence (whole entry, looked up): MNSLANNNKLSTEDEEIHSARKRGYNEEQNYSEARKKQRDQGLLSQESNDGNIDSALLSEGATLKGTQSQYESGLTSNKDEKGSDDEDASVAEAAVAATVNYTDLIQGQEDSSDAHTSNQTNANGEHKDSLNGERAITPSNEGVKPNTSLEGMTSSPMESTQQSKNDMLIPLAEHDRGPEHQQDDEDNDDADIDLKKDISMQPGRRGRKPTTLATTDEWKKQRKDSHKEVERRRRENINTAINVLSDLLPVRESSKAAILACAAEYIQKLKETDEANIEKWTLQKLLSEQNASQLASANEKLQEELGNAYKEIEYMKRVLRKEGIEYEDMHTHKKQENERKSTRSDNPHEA
Method: competition protein-binding microarray
Molecule type: double-stranded DNA, one strand shown
Sample: in vitro
Tested at: 2 µM
Setting: whole 60-bp probe, lowest competitor level
With: Pho4 competitor, 0.05 µM
Reading: higher = stronger binding
Strand	fluorescence intensity
CGTCCTAGCGATTGATGCGTGGGTGCCATGAGGAAGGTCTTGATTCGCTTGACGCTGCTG	73.3 a.u.
AGCTTCCGAGACTTTTTCGTGATGGGAGATAGATGCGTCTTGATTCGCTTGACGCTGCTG	74.2 a.u.
CTAACGAAGGTTTGGGACGTGGGTGACAAGCCAAGTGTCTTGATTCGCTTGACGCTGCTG	58.8 a.u.
GAATATAGAGGTACGCTCGTGTCCAAGGACAACTACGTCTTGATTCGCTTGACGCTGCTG	72 a.u.
AAAGCGGTAATTTGTCACCGCACTTCACATATCTATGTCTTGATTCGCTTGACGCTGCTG	69.6 a.u.
CATACCCAACCTTGGAGTGTGGGTGAAGATATTTGTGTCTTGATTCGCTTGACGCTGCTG	67.9 a.u.
GGTCATTGATGCTTGCATGTGCCGAGAAGCGGGACAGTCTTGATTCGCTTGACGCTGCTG	130 a.u.
CGTCCTAGCGATTGAAGGGTGGGTGCCATGAGGAAGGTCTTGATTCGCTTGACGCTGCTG	62.6 a.u.
TCAATTTCGAACGGAAGCGTGCGGACTCTGAGTTTTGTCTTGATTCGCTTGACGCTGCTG	64.1 a.u.
GATGCCGATAATTTTCACATGGATGAGTCGCAGTGTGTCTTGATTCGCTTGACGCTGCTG	102 a.u.
AGTGTCTGGGATGCGCTCGTGACGGTCGGCAGAGCAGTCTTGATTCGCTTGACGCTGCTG	160 a.u.
ATTTCATTATCCTGCCCCGTGGCAAGTATTTCTGTGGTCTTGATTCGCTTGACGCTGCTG	156 a.u.
GCTTGGAAGTCTCACCACGGGCAAATCTTCTTCTAAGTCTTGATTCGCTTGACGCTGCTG	65.8 a.u.
AGCGCATCCCAGACACTCGTGTATCTAAATCCCAGTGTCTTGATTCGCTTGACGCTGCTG	92.3 a.u.
GTTGACAAACCCGGCCACGTGACTCGAGCTTAGAAGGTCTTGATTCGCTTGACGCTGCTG	7450 a.u.
CTAACGAAGGTTTGCGCCGTGGGTGACAAGCCAAGTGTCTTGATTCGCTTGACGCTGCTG	73.5 a.u.
GAAGTCCCTAGCTTCCACGGGATGTTTCAGCATTAAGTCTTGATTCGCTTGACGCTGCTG	80.8 a.u.

Sample 2
Target: RNA binding protein fox-1 homolog 2, RRM domain, GST-SBP tag (RBFOX2, Homo sapiens, UniProt O43251-10, residues 100-194)
Method: RNA Bind-n-Seq
Molecule type: RNA
Sample: in vitro
Tested at: 365 nM
Setting: natural RNA segment, single round, ends assumed
Reference: no-protein control
Reading: higher = stronger binding
Residues (chain): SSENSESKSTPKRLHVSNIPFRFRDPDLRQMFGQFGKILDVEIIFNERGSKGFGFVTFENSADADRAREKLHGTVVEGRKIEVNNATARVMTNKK
Strand	RBNS enrichment (R)
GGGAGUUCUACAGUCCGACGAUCGAAGAUUCGGGCAUGUGAGUGCCCCCAGAACUGUCCUGGCUCCUUCCGUAUUAAACGCAUUUGCAUUUUGAGAAGUGUCCUUCCCACUUCAGCCCUCCGGAGAGACUACCUGGAAUUCUCGGGUGCCAA	2.2
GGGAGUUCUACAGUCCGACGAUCCAUUGGUUAUAGUCAUGGGAAAGGAAGGUGUCCACGCAGGCACAAUUAACAAGAAAACAUAUGAACUCGCUUUAUACCUGAAGAGGUCUGUAACCAACCUUUAUCUGGCAUGGAAUUCUCGGGUGCCAA	0.393
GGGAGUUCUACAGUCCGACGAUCAAAUUUUUAAAAAAAGACUUUAACUGCAGUUCCAAAGCUUCUCUAACCCAAAAAUUACAGUACCAAAUGAUUGACUCAGGAUUGUUUUUCCCAUAUUGAUAUGCUGGCAAUGGAAUUCUCGGGUGCCAA	0.857
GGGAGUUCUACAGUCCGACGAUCAGGGUACUGUUUUGAGCCAAAGGCUGAUACUUAAUUGAAGAGGGAAAAUGCAGAUUUGGGGACAAAGGUCUUUUUACUGCUCAAGUAGGGUCGCUUCUGUCCUGUUGCAAUGGAAUUCUCGGGUGCCAA	0.481
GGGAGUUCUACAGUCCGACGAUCAUUCUUCAUUGGAUGUUUAAAGCAUUUACUCCAUUGUUAAGGUUGGCAUCAUAUAGUCAGUUACUGACAUGGCAUAAGACAGCAUGAAACUUUACCACAUUUAUAAAUAUUGGAAUUCUCGGGUGCCAA	12.8
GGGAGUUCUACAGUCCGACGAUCACUGAGGCAGAGGAGUAAGAGUGGUCCAUACACCCAAAUGCCAGCAAAUUGGCAUCUCAUUCUACCUCUAAACCACUGGGUUGGUAUGGGUAUGAAUGCUCAGAGCUCACUGGAAUUCUCGGGUGCCAA	0.576
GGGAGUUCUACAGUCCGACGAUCCAUAUAGCCAGCAAAUGGAGGACUCCUAACUUCAGCACAAGUGGGUUUGGAGUGGCAGAGGCCAUACUUUCUUUGCCUCAGCUUCUCUCCUUCCUGCUGCCCUAUCCUCUUGGAAUUCUCGGGUGCCAA	0.255
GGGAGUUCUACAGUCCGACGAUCCCCCUACGUGUGGGACUGGUCAGCGGUGGCGAGGAGAGGCGGGCGGAUUUGGGGAGGGCCCUGAGGACCUGGCCCCGGGCAAGGGACUCUCCAGGCUCCUCCUCCCCCUGUGGAAUUCUCGGGUGCCAA	0.383
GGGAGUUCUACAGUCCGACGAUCUGGGACAGCCCCUUGAAGCAUUCUCCCUCAGUAUUACCUACCCUGUGCCACUGGCCUGACCCUCGAGACAGCUCAAGGAUCCGUGGUGUGGCCACCUGCCAGACCCCCAAUGGAAUUCUCGGGUGCCAA	0.98
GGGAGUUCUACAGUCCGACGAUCACACACACACACGGUGUUUCUAGAGAUCCAGUUGAGGACAUCUAGCAAGGGGAGUGACUGCCUCCCUUGGGCCAAGUUCCCCAGCCUCAGCCUGCACAUCUCUCUCUUUGUGGAAUUCUCGGGUGCCAA	0.453
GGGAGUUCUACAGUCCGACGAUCCUUAAACUUUUUAAUAUGUUGGGAUUUGAUUUUUCUAUUUAAUGGCUCUGAGUGUCAUCUAUCCAUUGCUGAGGUGGUCUCUAUAGCCUGCUCAAAGUCAAAUACAAACCUGGAAUUCUCGGGUGCCAA	0.426
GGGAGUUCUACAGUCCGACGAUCCUUGAAAGGUGAUUGGCAAAGUCAUGCAGGCCCGCCUUAAAGCGCUGAUUAGAACAGUCCAACACAGUCCGACCUCACUCAAUACCCACAACCAUCGAAAAUGGAUUCUUUGGAAUUCUCGGGUGCCAA	0.659

Sample 3
Target: NFE2L3, bZIP domain (human)
Method: DHFR protein complementation
Sample: yeast
Setting: single substitutions, most at no-binding floor
Reference: wild-type JUN-FOS pair
Reading: higher = stronger binding
Parent: JUN, bZIP domain (human); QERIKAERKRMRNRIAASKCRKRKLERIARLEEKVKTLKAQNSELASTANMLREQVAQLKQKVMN; partner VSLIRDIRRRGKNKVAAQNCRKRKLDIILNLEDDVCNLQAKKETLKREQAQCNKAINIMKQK
Change	binding fitness [natural log]
A29P	-1.55
S47L	-1.34
S47M	-1.37
A40N	-1.38
M51R	-1.46
E54P	-1.51
Q55R	-1.5
Q41M	-1.54
L45A	-1.56
T48E	-1.37
S47Y	-1.52
V35R	-1.51
A40L	-1.59
T48V	-1.46
L38D	-1.56
Q41E	-1.6
E33P	-1.46
T37H	-1.32

Sample 4
Target: CCNE2, cyclin fold, Cln2 fusion (human)
Method: yeast growth competition, sequencing
Sample: yeast
Setting: weak parent motif
Reference: not given
Reading: higher = stronger binding
Parent: MASTL docking peptide (human); PMIAKNLMCELDE
Change	normalised enrichment score
PMIAKNQMCELDE [L7Q]	-0.166
PMIAKNLTCELDE [M8T]	-0.339
PMIAKNLMCELHE [D12H]	0.142
PMIAKSLMCELDE [N6S]	-0.106
PMIAKFLMCELDE [N6F]	-0.214
PMIAKNLMCYLDE [E10Y]	0.304
PMIAKNGMCELDE [L7G]	-0.525
PMIAGNLMCELDE [K5G]	-0.223
PMIARNLMCELDE [K5R]	0.285
PMIVKNLMCELDE [A4V]	-0.159
PMIAKNLMCELSE [D12S]	-0.0264
PMIAKNMMCELDE [L7M]	-0.51
PMIAKGLMCELDE [N6G]	-0.394
PPIAKNLMCELDE [M2P]	-0.0844
PMYAKNLMCELDE [I3Y]	0.446
PMIAKNLQCELDE [M8Q]	-0.265

Sample 5
Target: Interferon regulatory factor 3, full length, phosphomimetic (IRF3, Homo sapiens, UniProt Q14653, residues 1-427, S386D/S396D/S398D/S402D/T404D/S405D)
UniProt Q14653, sequence (whole entry, unmodified, looked up): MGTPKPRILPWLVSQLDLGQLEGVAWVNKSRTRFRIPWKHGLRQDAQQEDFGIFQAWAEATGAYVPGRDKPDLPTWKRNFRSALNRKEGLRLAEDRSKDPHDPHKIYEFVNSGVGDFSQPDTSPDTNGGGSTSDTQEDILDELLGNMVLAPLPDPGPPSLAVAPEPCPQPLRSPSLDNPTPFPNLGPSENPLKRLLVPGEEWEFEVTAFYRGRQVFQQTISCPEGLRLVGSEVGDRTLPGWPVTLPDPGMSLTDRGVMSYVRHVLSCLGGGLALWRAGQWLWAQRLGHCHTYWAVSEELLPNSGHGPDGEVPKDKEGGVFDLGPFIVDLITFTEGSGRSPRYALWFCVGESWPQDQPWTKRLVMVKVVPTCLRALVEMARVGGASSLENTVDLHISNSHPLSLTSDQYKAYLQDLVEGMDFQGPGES
Method: protein-binding microarray
Molecule type: double-stranded DNA, one strand shown
Sample: in vitro
Tested at: 2540 nM top
Setting: 60-bp whole probe
With: salmon DNA 0.4 mg/ml
Reference: random background probes
Reading: higher = stronger binding
Shared flanks, not repeated: GCCTAGCAC … GTCTTGATTCGCTTGACGCTGCTG
Strand	fitted relative affinity
GACGGACTGAGTTTCGAGACGTGCTAG	1.03 z-score
GACGATTTCAGATCCGAGACGTGCTAG	2.03 z-score
TTAGATTTTAGTATCGATTAGTGCTAG	1.22 z-score
TTAGGTATCCTTCTCCTATAGTGCTAG	7.44 z-score
GACGATCTTAGTATCGAGACGTGCTAG	0.847 z-score
GACGAACTGGGCTATCGAGACGTGCTA	-0.691 z-score
TTAGCACTGAGTCTCGATTAGTGCTAG	-0.406 z-score
GACGAACTGAGTATAGAGACGTGCTAG	-0.13 z-score
TGAGGTTTCGGGTTTCGGTTAGTGCTA	5.93 z-score
TTAGGTTTCGACGCTGGGTTAGTGCTA	1.1 z-score
TCATACTTCTCTTTTTGACTGTGCTAG	1.62 z-score
GACGGTATCGGATTGGGGACGTGCTAG	2.98 z-score
TTAGAACTGGGGTATCAATTAGTGCTA	-0.526 z-score
CTCTTGTTCTCTCTGGCCCTGTGCTAG	0.522 z-score
TCAGATTTCAATTAAAAACTGTGCTAG	1.56 z-score
TTAGATTTCAGTCTCGGTTAGTGCTAG	2.65 z-score
GACGGTCTCCTTATCCTGACGTGCTAG	2.89 z-score
TTCGCTTTCTTTAACTCATTGTGCTAG	1.96 z-score
TCACATTTTTTTTTTCTACTGTGCTAG	0.897 z-score
TTAGGTCTCCTTATCCCTTAGTGCTAG	2.7 z-score

Excerpt of the above (sample 1):
Strand	fluorescence intensity
CGTCCTAGCGATTGAAGGGTGGGTGCCATGAGGAAGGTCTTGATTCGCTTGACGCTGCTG	62.6 a.u.
TCAATTTCGAACGGAAGCGTGCGGACTCTGAGTTTTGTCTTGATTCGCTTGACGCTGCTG	64.1 a.u.
GATGCCGATAATTTTCACATGGATGAGTCGCAGTGTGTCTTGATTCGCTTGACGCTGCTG	102 a.u.
AGTGTCTGGGATGCGCTCGTGACGGTCGGCAGAGCAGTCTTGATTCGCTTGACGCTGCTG	160 a.u.
